Assay results from different studies.
Lines come from different studies, so protocols differ. Numbers after ± are the reported error.

CN[C@@H](C)C/C=C/c1cncc(OC)c1
EC50 (dopamine release, releaser, item: [3H]dopamine; rat striatal synaptosomes): 6300 nM

O=C(O)c1ccc(O)c(O)c1
EC50 (hydroxyl radical scavenging, in vitro; 50% scavenging): 1900 ± 210 nM

Oc1cccc2c1ccc1ccccc12
EC50 (zebrafish embryo): 500 to 5500 nM

O=[N+]([O-])c1ccc2ccc3cccc4ccc1c2c34
EC50 (developmental toxicity; zebrafish (Danio rerio) embryos; 6 to 120 hpf): 44800 nM

Oc1cc2c(O)cccc2c2ccccc12
EC50 (zebrafish embryo): 500 to 5500 nM

CC(C)C[C@H](NC(=O)[C@H](Cc1ccccc1)NC(=O)[C@@H](NC(=O)[C@H](Cc1c[nH]cn1)NC(=O)[C@H](CC(=O)O)NC(=O)[C@@H](NC(=O)[C@H](CC(=O)O)NC(=O)[C@@H](N)[C@@H](C)O)C(C)C)C(C)C)C(=O)N[C@@H](CCCNC(=N)N)C(=O)N[C@@H](Cc1ccccc1)C(N)=O
EC50 (heart contraction rate decrease; Drosophila melanogaster white prepupae, pupal heart): 30 nM

Oc1ccc2ccc3ccccc3c2c1
EC50 (zebrafish embryo): 500 to 5500 nM

O=[N+]([O-])c1ccc2c3c(cccc13)-c1ccccc1-2
EC50 (developmental toxicity; zebrafish (Danio rerio) embryos; 6 to 120 hpf): 2040 nM

CN1CCC[C@H]1c1cccnc1
EC50 ([3H]dopamine release; rat striatal synaptosomes): 3000 nM

c1ccc2c(-c3cnn4cc(-c5ccc(N6CCNCC6)cc5)cnc34)ccnc2c1
EC50 (intersomitic vessel formation; zebrafish Tg(fli1:EGFP)y1 embryos; 12 to 48 hpf, about 50% of vessels inhibited): 20000 nM
